Measurements of several laboratories.
Parts stem from different laboratories: compare values within a part only. Positions count from the first letter of the parent shown.

Sample 1 — technique: RNA Bind-n-Seq; form: RNA; medium: in vitro; tested at: 365 nM; baseline: no-protein control; reading: higher = stronger binding; measurement: RBNS enrichment (R)
Target: RNA binding protein fox-1 homolog 2, RRM domain, GST-SBP tag (RBFOX2, Homo sapiens, UniProt O43251-10, residues 100-194)
Notes: natural RNA segment, single round, ends assumed
All sequences stand within: GGGAGUUCUACAGUCCGACGAUC … UGGAAUUCUCGGGUGCCAA
Residues (chain): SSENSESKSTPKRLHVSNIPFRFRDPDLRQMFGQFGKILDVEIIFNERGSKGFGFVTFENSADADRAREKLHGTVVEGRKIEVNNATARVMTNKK
UUGAAUGUAGCUCUUGGGAAUGCAUUAUUACAUCCAUUUCUGUAACAUAAUAAUAUGUUGCAUGCAGUUAUAUUUUCUAUUUAGUCUGUAUAUUUUGUUCUUCAUAGUCU: 1.14
UCCCAGAAUGGUGUAAAUACUUCUUUUCAAUGUUGUGACCAAGUAUUGUCACUCAGCCAACAACUUUUCCACACCUGGGGGUUGGUGGCUGUUCUUACUGUCCAAAUGAA: 0.267
GCCCCUAUGUGCCUAGAUGGUUUGGGGCUACUGGUGCGUGCAGGAGAGGUGGGGUCACCCAAGCUGAGUGCCAUCUUUUCCUGAAUGUCAGAUCUGCAGCCUCGGGGACU: 0.428
CAGAGAGGGGGGUUCAAAGACCCCCGGAGGGGGCCUACUCUGUGUUGGUGGGAAUGGAACUGGGCCGAUGUCCUUCAUUCAGCCUGUGCCUUUCUUGGGGUUUCUUUUCU: 0.581
AUCAAUCUAUAUUUAAUUCAGUUCAGUGGCAUUCAUUAAGGAUGAAUUAAUCACUAUAGGAUUAAGCCUUUAUCCUAUAGUGUCCAGUUUUUCUCUACUUCUGAAAUGAG: 0.378
CCCUGCCCUCAUACAAGAUUUUUCUCAGCCUUCAGCCUACCACUGCAGAAUCCGAUGUGACCCACCAUUAGGGAGUCUGCAUCUUGGAAGAGUUGGAAAUAACCCUUUAA: 0.746

Sample 2 — target: CCND1, cyclin fold, Cln2 fusion (human); technique: yeast growth competition, sequencing; medium: yeast; notes: weak parent motif; baseline: not given; reading: higher = stronger binding; measurement: normalised enrichment score
Parent: GMNC docking peptide (human); KNAKRNLSSEFAN; partner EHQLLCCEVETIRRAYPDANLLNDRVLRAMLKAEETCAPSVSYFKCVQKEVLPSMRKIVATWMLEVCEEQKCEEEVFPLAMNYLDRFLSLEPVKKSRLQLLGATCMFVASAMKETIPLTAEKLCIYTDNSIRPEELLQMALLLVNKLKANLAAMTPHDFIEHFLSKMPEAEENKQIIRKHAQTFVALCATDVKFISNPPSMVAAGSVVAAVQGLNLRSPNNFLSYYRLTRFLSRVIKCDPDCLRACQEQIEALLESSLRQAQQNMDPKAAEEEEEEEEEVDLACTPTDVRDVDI
KNAKRNLSEEFAN [S9E]: 0.879
KNANRNLSSEFAN [K4N]: 0.315
KNAKRNLSSEGAN [F11G]: 0.118
KNAKRNLSSQFAN [E10Q]: 0.364
KNAKRNLSSEFEN [A12E]: 1.37
KQAKRNLSSEFAN [N2Q]: 0.493

Sample 3 — technique: universal PBM; form: double-stranded DNA, one strand shown; medium: in vitro; tested at: not given; reading: higher = stronger binding; measurement: E-score
Target: Sal-like protein 4, full length isoform B (SALL4, Homo sapiens, UniProt Q9UJQ4-2, residues 1-616)
Notes: 8-mer, flanks averaged, mean of replicates
AAGATAGC: 0.0548
GACGCGTA: 0.0724
TCGGACCA: -0.155
CCGATACA: 0.112
CCATGGAC: -0.28

Single results of other studies
PhoQ, residues 284 288 289 292 302 303 ALSMDL — fold induction (PhoP, residues 12 14 15 18 19 LYHSL (Escherichia coli, UniProt P23836); Sort-seq, refers to: YFP reporter; E. coli; PhoQ-PhoP variant library, with: 10 µM Mg2+; baseline: high Mg2+ state, higher = stronger signaling): 3.04

Repeated from above (sample 1):
GCCCCUAUGUGCCUAGAUGGUUUGGGGCUACUGGUGCGUGCAGGAGAGGUGGGGUCACCCAAGCUGAGUGCCAUCUUUUCCUGAAUGUCAGAUCUGCAGCCUCGGGGACU: 0.428
CAGAGAGGGGGGUUCAAAGACCCCCGGAGGGGGCCUACUCUGUGUUGGUGGGAAUGGAACUGGGCCGAUGUCCUUCAUUCAGCCUGUGCCUUUCUUGGGGUUUCUUUUCU: 0.581
AUCAAUCUAUAUUUAAUUCAGUUCAGUGGCAUUCAUUAAGGAUGAAUUAAUCACUAUAGGAUUAAGCCUUUAUCCUAUAGUGUCCAGUUUUUCUCUACUUCUGAAAUGAG: 0.378
